Assay results from different studies.
Each line is one published result; not all experiments were run side by side. ± gives the spread as reported.
lecA: PA-I galactophilic lectin (lecA, Pseudomonas aeruginosa, UniProt Q05097)
Sequence of UniProt Q07741 (whole entry, looked up): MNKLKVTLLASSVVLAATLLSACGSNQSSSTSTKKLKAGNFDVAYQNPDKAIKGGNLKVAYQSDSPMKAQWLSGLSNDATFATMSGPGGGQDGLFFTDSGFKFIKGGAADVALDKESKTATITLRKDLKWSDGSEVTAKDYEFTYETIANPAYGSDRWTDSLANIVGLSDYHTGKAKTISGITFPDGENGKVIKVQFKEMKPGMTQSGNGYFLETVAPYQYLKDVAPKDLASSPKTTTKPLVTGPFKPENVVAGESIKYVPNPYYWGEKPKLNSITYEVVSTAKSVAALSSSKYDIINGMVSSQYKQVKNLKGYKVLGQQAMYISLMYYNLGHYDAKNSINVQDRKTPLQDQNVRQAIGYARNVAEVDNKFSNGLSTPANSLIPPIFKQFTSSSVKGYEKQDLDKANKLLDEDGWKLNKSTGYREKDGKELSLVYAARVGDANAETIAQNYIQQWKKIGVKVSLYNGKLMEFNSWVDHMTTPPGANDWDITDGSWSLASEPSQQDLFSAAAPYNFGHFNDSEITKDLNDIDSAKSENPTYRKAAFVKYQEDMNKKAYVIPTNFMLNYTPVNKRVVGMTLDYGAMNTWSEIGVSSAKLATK
Sequence of UniProt Q39204 (whole entry, looked up): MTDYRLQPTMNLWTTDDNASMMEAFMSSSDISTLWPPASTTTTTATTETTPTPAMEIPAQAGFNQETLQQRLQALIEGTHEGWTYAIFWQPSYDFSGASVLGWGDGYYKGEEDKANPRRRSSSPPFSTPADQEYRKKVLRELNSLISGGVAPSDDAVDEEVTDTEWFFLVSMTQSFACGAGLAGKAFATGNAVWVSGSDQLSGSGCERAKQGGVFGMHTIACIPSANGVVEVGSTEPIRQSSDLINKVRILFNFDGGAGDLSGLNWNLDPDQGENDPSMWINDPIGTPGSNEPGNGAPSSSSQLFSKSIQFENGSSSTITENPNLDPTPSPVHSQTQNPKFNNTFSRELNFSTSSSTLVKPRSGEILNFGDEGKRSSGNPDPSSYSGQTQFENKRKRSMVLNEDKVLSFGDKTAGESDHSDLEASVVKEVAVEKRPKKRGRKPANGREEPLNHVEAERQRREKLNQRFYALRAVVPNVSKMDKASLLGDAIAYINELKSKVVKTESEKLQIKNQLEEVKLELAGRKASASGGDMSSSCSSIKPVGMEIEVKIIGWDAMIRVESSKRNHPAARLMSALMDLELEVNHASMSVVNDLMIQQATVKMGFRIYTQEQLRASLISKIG
Sequence of UniProt Q9Y294 (whole entry, looked up): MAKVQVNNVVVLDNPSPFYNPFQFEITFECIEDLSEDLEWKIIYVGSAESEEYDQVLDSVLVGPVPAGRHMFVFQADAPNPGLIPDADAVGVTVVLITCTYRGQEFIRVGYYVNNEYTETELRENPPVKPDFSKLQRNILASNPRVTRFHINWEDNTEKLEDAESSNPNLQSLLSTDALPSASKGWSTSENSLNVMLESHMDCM
Sequence of UniProt P97287 (152-308, looked up): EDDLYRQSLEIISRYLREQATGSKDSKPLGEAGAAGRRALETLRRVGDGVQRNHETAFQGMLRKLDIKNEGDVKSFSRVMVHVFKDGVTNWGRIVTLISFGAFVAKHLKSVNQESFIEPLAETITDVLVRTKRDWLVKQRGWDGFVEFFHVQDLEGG
Sequence of UniProt P22455 (whole entry, looked up): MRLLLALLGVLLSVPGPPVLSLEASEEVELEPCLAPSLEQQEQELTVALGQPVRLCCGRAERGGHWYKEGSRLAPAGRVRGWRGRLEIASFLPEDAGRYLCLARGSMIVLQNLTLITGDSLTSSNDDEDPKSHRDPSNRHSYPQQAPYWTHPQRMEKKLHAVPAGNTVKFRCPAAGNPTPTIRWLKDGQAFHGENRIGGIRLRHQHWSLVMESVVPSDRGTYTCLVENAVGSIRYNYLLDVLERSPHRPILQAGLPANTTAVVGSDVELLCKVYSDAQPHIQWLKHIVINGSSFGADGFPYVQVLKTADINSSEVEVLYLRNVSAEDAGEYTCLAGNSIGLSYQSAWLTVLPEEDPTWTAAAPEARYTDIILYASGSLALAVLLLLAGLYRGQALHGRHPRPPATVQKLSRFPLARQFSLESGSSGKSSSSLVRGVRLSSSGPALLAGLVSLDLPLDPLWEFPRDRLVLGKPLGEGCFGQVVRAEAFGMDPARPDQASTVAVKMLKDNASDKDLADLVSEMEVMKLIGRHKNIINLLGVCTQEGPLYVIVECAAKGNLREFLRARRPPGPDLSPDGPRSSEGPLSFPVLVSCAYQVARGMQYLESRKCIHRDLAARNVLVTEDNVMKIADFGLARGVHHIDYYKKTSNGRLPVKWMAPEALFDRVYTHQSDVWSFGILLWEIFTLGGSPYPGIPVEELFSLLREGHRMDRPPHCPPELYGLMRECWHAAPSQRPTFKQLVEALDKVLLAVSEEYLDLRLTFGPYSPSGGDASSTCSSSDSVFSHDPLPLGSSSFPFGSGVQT
Sequence of UniProt P26718 (whole entry, looked up): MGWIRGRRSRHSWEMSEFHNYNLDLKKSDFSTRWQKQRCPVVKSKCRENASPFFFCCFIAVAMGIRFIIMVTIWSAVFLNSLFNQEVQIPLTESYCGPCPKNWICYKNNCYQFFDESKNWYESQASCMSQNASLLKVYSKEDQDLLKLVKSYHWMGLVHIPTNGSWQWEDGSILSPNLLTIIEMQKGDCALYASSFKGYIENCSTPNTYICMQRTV
Sequence of UniProt Q9NQG5 (whole entry, looked up): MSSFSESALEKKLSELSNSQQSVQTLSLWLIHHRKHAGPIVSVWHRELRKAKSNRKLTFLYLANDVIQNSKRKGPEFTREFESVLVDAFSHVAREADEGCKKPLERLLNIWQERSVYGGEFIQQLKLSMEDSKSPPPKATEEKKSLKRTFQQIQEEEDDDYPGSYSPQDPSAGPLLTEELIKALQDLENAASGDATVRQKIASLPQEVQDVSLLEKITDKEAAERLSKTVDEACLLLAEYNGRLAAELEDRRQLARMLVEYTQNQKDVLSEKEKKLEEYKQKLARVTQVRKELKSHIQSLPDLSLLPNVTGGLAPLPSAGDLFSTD
Sequence of UniProt Q767F1 (whole entry, unmodified, looked up): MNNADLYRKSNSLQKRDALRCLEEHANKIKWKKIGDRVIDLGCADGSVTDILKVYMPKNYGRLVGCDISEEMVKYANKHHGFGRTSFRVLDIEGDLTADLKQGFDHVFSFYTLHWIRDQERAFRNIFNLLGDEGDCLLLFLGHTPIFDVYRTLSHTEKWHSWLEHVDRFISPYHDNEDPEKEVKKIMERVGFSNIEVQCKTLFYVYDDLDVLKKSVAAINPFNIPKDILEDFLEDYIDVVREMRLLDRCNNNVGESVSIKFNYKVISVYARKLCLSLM
Sequence of UniProt Q9NZC7 (whole entry, looked up): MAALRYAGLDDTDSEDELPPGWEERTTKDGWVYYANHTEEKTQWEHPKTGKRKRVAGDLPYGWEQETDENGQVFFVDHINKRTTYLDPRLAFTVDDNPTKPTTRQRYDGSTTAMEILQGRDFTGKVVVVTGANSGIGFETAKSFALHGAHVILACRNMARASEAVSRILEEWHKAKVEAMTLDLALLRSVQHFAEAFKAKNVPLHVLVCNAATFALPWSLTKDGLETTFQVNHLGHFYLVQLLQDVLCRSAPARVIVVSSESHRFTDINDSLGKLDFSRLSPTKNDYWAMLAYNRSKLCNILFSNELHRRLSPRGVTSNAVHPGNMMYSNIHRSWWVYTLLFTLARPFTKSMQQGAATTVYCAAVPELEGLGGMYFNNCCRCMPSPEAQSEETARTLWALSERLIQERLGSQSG

Structure (SMILES) = CC[C@H](C)[C@H](NC(=O)[C@H](CC(C)C)NC(=O)[C@H](CC(C)C)NC(=O)CNC(=O)[C@H](CCCCN)NC(=O)[C@H](C)NC(=O)[C@H](CC(C)C)NC(=O)[C@H](CC(C)C)NC(=O)[C@H](CCCCN)NC(=O)[C@H](Cc1c[nH]c2ccccc12)NC(=O)[C@@H](N)CC(N)=O)C(=O)N[C@@H](CCCNC(=N)N)C(=O)N[C@@H](CCC(=O)O)C(=O)N[C@@H](CCCNC(=N)N)C(=O)N[C@@H](CC(C)C)C(=O)N[C@@H](CCCCN)C(=O)N[C@@H](CCCNC(=N)N)C(=O)O; target = Centrin-1, N-terminal 21 residues deleted (CEN1, Toxoplasma gondii, UniProt A0A125YHX7); test = isothermal titration calorimetry; setting = pH 7.5, 25 °C, 5 mM EGTA, single-site fit; Kd = 0.0591 ± 0.0118 µM
Structure (SMILES) = CSCC[C@H](NC(C)=O)C(=O)N[C@@H](CO)C(=O)N[C@@H](CO)C(=O)N1CCC[C@H]1C(=O)N1CCC[C@H]1C(=O)N[C@H]1CSCc2cc3cc(c2)CSC[C@@H](C(=O)N[C@@H](CC(C)C)C(=O)N[C@@H](CCCNC(=N)N)C(=O)N[C@@H](CCCNC(=N)N)C(=O)N[C@@H](Cc2ccc(O)cc2)C(=O)NCC(=O)N[C@@H](CO)C(=O)NCC(=O)N[C@@H](CO)C(=O)NCC(=O)N[C@@H](CO)C(=O)N[C@@H](CC(=O)O)C(=O)N[C@@H](Cc2ccc(O)cc2)C(=O)N[C@@H](CCCCN)C(=O)N[C@@H](CC(=O)O)C(=O)N[C@@H](CC(=O)O)C(=O)N[C@@H](CC(=O)O)C(=O)N[C@@H](CC(=O)O)C(=O)N[C@@H](CCCCN)C(N)=O)NC(=O)[C@H](CSC3)NC(=O)CNC(=O)[C@H](CC(C)C)NC(=O)[C@H]([C@@H](C)O)NC1=O; target = FGFR4 (Homo sapiens, UniProt P22455); test = binding, BLI; Kd = 0.0917 µM
Structure (SMILES) = CC[C@H](C)[C@H](NC(=O)[C@H](Cc1c[nH]cn1)NC(=O)[C@H](CCCCNC(=O)[C@@H](NC(=O)[C@H](CCCCN)NC(=O)CSC[C@H](NC(=O)[C@H](Cc1ccccc1)NC(=O)[C@H](CCCCNC(=O)[C@H](CC(C)C)NC(=O)[C@@H]1CCCN1C(=O)[C@H](CCCCN)NC(=O)C[C@@H]1O[C@@H](C)[C@@H](O)[C@@H](O)[C@@H]1O)NC(=O)[C@H](CC(C)C)NC(=O)[C@@H]1CCCN1C(=O)[C@H](CCCCN)NC(=O)c1ccc(O[C@@H]2O[C@H](CO)[C@H](O)[C@H](O)[C@H]2O)cc1)C(N)=O)[C@@H](C)CC)NC(=O)[C@@H](NC(=O)[C@H](CCCCN)NC(=O)CSC[C@H](NC(=O)[C@H](Cc1ccccc1)NC(=O)[C@H](CCCCNC(=O)[C@H](CC(C)C)NC(=O)[C@@H]1CCCN1C(=O)[C@H](CCCCN)NC(=O)C[C@@H]1O[C@@H](C)[C@@H](O)[C@@H](O)[C@@H]1O)NC(=O)[C@H](CC(C)C)NC(=O)[C@@H]1CCCN1C(=O)[C@H](CCCCN)NC(=O)c1ccc(O[C@@H]2O[C@H](CO)[C@H](O)[C@H](O)[C@H]2O)cc1)C(N)=O)[C@@H](C)CC)C(N)=O; target = lecA; test = binding, ITC; setting = pH 7.5; Kd = 0.075 µM
Structure (SMILES) = CC(C)[C@@H]1NC(=O)[C@H](CC(N)=O)NC(=O)C2(CCCCC2)NC(=O)[C@H](Cc2ccc(OP(=O)(O)O)cc2)NC(=O)[C@H](CCCCN)NC1=O; target = Growth factor receptor-bound protein 2, SH2 (GRB2, Homo sapiens, UniProt P62993); test = binding; Kd = 7.55 µM
Structure (SMILES) = N=C(N)NCCC[C@H](NC(=O)[C@H](Cc1ccccc1)NC(=O)[C@@H]1CCCN1C(=O)[C@H](CO)NC(=O)[C@H](Cc1ccccc1)NC(=O)CNC(=O)[C@@H]1CCCN1C(=O)[C@@H]1CCCN1C(=O)[C@@H](N)CCCNC(=N)N)C(=O)N[C@@H](CCCCNS(=O)(=O)c1ccc(C2=c3cc4c5c(c3Oc3c2cc2c6c3CCCN6CCC2)CCC[N+]=5CCC4)c(S(=O)(=O)[O-])c1)C(=O)O; target = Oligopeptide-binding protein OppA (oppA, Lactococcus lactis subsp. lactis, UniProt Q07741); test = binding, fluorescence anisotropy; setting = pH 6, 30 °C, added: dye-labelled peptide; Kd = 13.1 ± 0.7 µM
Structure (SMILES) = CC[C@H](C)[C@H](NC(=O)[C@H](CCCCN)NC(=O)[C@H](Cc1ccccc1)NC(=O)[C@H](CCCCNC(=O)[C@H](CC(C)C)NC(=O)[C@@H]1CCCN1C(=O)[C@H](CCCCN)NC(=O)CCS[C@@H]1O[C@H](CO)[C@H](O)[C@H](O)[C@H]1O)NC(=O)[C@H](CC(C)C)NC(=O)[C@@H]1CCCN1C(=O)[C@H](CCCCN)NC(=O)CCS[C@@H]1O[C@H](CO)[C@H](O)[C@H](O)[C@H]1O)C(N)=O; target = lecA; test = binding, ITC; setting = pH 7.5; Kd = 1.06 µM
Structure (SMILES) = CC(C)C[C@H](NC(=O)[C@@H](NC(=O)[C@@H](NC(=O)CNC(=O)CNC(=O)CNC(=O)CNC(=O)CNC(=O)[C@H](CC(N)=O)NC(=O)[C@H](CCCNC(=N)N)NC(=O)[C@H](Cc1c[nH]cn1)NC(=O)[C@H](CCCNC(=N)N)NC(=O)[C@H](Cc1ccc(O)cc1)NC(=O)[C@@H]1CCCN1C(=O)[C@@H]1CCCN1C(=O)[C@@H]1CCCN1C(=O)[C@@H]1CCCN1C(=O)[C@H](CC(C)C)NC(=O)[C@@H](NC(=O)[C@@H](NC(=O)CN)[C@@H](C)O)C(C)C)[C@@H](C)O)C(C)C)C(=O)N1CCC[C@H]1C(=O)N[C@@H](C)C(=O)N[C@@H](C)C(=O)N1CCC[C@H]1C(=O)N[C@@H](Cc1ccc(O)cc1)C(=O)N[C@@H](CCCNC(=N)N)C(=O)N[C@@H](Cc1c[nH]cn1)C(=O)N[C@@H](CCCNC(=N)N)C(=O)N[C@@H](CC(N)=O)C(=O)O; target = WW domain-containing oxidoreductase, WW1-WW2 tandem domains (WWOX, Homo sapiens, UniProt Q9NZC7); test = NMR titration; Kd = 10 to 20 µM
Structure (SMILES) = CC[C@H](C)[C@H](NC(=O)[C@H](CCCNC(=N)N)NC(=O)[C@H](CCCNC(=N)N)NC(=O)[C@H](C)NC(=O)[C@H](CC(C)C)NC(=O)[C@H](CCCNC(=N)N)NC(=O)[C@H](C)NC(=O)[C@H](Cc1c[nH]c2ccccc12)NC(=O)[C@H](CCCCN)NC(=O)[C@H](CCC(=O)O)NC(=O)[C@H](CCC(=O)O)NC(=O)[C@@H](NC(=O)[C@H](CO)NC(=O)[C@H](C)NC(C)=O)[C@@H](C)O)C(=O)N[C@@H](C)C(=O)NCC(N)=O; target = Histone chaperone ASF1A (Homo sapiens, UniProt Q9Y294); test = binding, ITC; setting = pH 7.5; Kd = 0.13 µM
Structure (SMILES) = CC[C@H](C)[C@H](NC(=O)[C@H](CCC(=O)O)NC(=O)[C@H](CCCNC(=N)N)NC(=O)[C@H](C)NC(=O)[C@H](Cc1c[nH]c2ccccc12)NC(=O)[C@H](CCC(=O)O)NC(=O)[C@H](CCC(=O)O)NC(=O)[C@H](CCC(=O)O)NC(C)=O)C(=O)NCC(=O)N[C@@H](C)C(=O)N[C@@H](CCC(N)=O)C(=O)N[C@@H](CC(C)C)C(=O)N[C@@H](CCCNC(=N)N)C(=O)N[C@@H](CCCNC(=N)N)C(=O)N[C@@H](C)C(=O)N[C@@H](C)C(=O)N[C@@H](CC(=O)O)C(=O)N[C@@H](CC(=O)O)C(=O)N[C@@H](CC(C)C)C(=O)N[C@@H](CC(N)=O)C(=O)N[C@@H](C)C(=O)N[C@@H](CCC(N)=O)C(=O)N[C@@H](Cc1ccc(O)cc1)C(=O)N[C@@H](CCC(=O)O)C(=O)N[C@@H](CCCNC(=N)N)C(=O)N[C@@H](CCCNC(=N)N)C(=O)N[C@@H](CCCNC(=N)N)C(N)=O; target = Induced myeloid leukemia cell differentiation protein Mcl-1 homolog, residues 152-308 (Mus musculus, UniProt P97287); test = binding, SPR; Kd = 0.004 µM
Structure (SMILES) = CC(C)=CCC/C(C)=C/CC/C(C)=C/C(=O)O; target = Juvenile hormone acid O-methyltransferase (JHAMT, Bombyx mori, UniProt Q767F1, Q14A); test = binding, fluorescence binding; setting = pH 8.0, 25 °C; Kd = 0.27 ± 0.05 µM
Structure (SMILES) = C[C@@H](O)[C@H](NC(=O)[C@@H]1CCCN1C(=O)[C@H](CO)NC(=O)[C@H](Cc1ccc(O)cc1)NC(=O)[C@H](CO)NC(=O)[C@@H]1CCCN1C(=O)[C@H](COP(=O)(O)O)NC(=O)[C@@H](NC(=O)[C@@H]1CCCN1C(=O)[C@H](CO)NC(=O)[C@H](Cc1ccc(O)cc1)NC(=O)[C@H](CO)NC(=O)[C@@H]1CCCN1C(=O)[C@@H](N)CO)[C@@H](C)O)C(=O)N[C@@H](COP(=O)(O)O)C(=O)N1CCC[C@H]1C(=O)N[C@@H](CO)C(=O)N[C@@H](Cc1ccc(O)cc1)C(=O)N[C@@H](CO)C(=O)O; target = Regulation of nuclear pre-mRNA domain-containing protein 1B, CID domain (RPRD1B, Homo sapiens, UniProt Q9NQG5); test = isothermal titration calorimetry; setting = pH 7.5, 25 °C; Kd = > 1000 µM
Structure (SMILES) = CC(C)C[C@H](NC(=O)[C@H](CCCNC(=N)N)NC(=O)[C@H](CCC(=O)O)NC(=O)[C@H](CCCCN)NC(=O)[C@H](CCCNC(=N)N)NC(=O)[C@H](CCCCN)NC(=O)[C@]1(C)CCCC=CCCC[C@](C)(NC(=O)[C@H](CC(C)C)NC(=O)[C@H](CO)NC(=O)[C@H](C)NC(=O)[C@H](CCCCN)NC(=O)[C@H](CCCNC(=N)N)NC(=O)[C@H](C)NC(=O)[C@H](CCC(N)=O)NC(=O)[C@@H]2CCCN2C(=O)[C@@H](NC(=O)[C@H](CO)NC(=O)c2ccc3c(c2)C(=O)OC32c3ccc(N(C)C)cc3Oc3cc(N(C)C)ccc32)C(C)C)C(=O)N[C@@H](CCCNC(=N)N)C(=O)N[C@@H](Cc2ccccc2)C(=O)N[C@@H](CC(C)C)C(=O)N1)C(=O)O; target = Transcription factor MYC2 (MYC2, Arabidopsis thaliana, UniProt Q39204); test = binding, fluorescence anisotropy; setting = pH 8.0, MYC2 residues 55-259; Kd = 0.73 ± 0.1 µM
Structure (SMILES) = CC[C@H](C)[C@H](NC(=O)[C@@H](NC(=O)[C@H](Cc1c[nH]c2ccccc12)NC(=O)[C@H](CCC(=O)O)NC(=O)[C@H](CO)NC(=S)Nc1ccc2c(c1)C(=O)OC21c2ccc(O)cc2Oc2cc(O)ccc21)C(C)C)C(=O)N[C@H](C(=O)N[C@H](C(=O)N1CCC[C@H]1C(=O)N[C@@H](Cc1ccccc1)C(=O)N[C@@H](CC(C)C)C(=O)N[C@@H](C)C(=O)N[C@@H](CC(N)=O)C(=O)N[C@@H](CC(C)C)C(=O)O)[C@@H](C)CC)C(C)C; target = Rgg transcriptional regulator (Streptococcus pneumoniae, UniProt A0A0E7KI02); test = binder, fluorescence polarization; setting = 20 min, pH 7.4, 20 °C, fluorescein-labelled peptide; Kd = 3.3 ± 0.1 µM
Structure (SMILES) = CN(C)C(=O)C(NC(=O)c1ccccc1-c1ccc(C(F)(F)F)cc1)c1cccc(C(F)(F)F)c1 (centres unmarked); target = NKG2-D type II integral membrane protein (KLRK1, Homo sapiens, UniProt P26718); test = binding, surface plasmon resonance; setting = 25 °C, 1:1 binding model; Kd = 3.9 µM

A few entries again:
Structure (SMILES) = N=C(N)NCCC[C@H](NC(=O)[C@H](Cc1ccccc1)NC(=O)[C@@H]1CCCN1C(=O)[C@H](CO)NC(=O)[C@H](Cc1ccccc1)NC(=O)CNC(=O)[C@@H]1CCCN1C(=O)[C@@H]1CCCN1C(=O)[C@@H](N)CCCNC(=N)N)C(=O)N[C@@H](CCCCNS(=O)(=O)c1ccc(C2=c3cc4c5c(c3Oc3c2cc2c6c3CCCN6CCC2)CCC[N+]=5CCC4)c(S(=O)(=O)[O-])c1)C(=O)O; target = Oligopeptide-binding protein OppA (oppA, Lactococcus lactis subsp. lactis, UniProt Q07741); test = binding, fluorescence anisotropy; setting = pH 6, 30 °C, added: dye-labelled peptide; Kd = 13.1 ± 0.7 µM
